Measured values collected from several papers.
Protocols differ between the studies behind these lines. ± gives the spread as reported. Ends that are not written are not given here. No end group written: not given here. *: point of attachment.
B1: enzyme (Bacillus pumilus, UniProt A8FFI9); chain EARSIAWSVDEFFKNREGTFVIQEVKEKSPWVYNKKRAKERFAPQSTFKVANALIGLQTGAVRDEYDIKYWDGVKREIDNWNRDHTLGSGMRDSVVWYYQAMARDIGEERMNHWVKAIHYGNKDISGGIDQFWLSSTLRISPIEQVRFLKQLYEETLPFDLKNMRTVKRMMVQEEEKHATLYGKTGSGSDIGWYVGFIKHEHKTYILATNIKGTGIEAKDITYRILKKYHLMEASV
Sequence of UniProt Q9UNE7 (whole entry, looked up): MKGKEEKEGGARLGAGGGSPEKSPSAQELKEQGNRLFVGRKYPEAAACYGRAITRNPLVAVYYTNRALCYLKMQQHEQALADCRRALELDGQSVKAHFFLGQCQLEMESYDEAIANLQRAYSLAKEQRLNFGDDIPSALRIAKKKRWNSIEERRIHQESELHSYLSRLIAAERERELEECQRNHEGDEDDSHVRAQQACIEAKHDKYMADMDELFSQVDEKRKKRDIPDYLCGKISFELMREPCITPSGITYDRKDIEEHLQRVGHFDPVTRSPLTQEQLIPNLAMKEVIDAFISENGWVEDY
Sequence of UniProt O60656 (whole entry, looked up): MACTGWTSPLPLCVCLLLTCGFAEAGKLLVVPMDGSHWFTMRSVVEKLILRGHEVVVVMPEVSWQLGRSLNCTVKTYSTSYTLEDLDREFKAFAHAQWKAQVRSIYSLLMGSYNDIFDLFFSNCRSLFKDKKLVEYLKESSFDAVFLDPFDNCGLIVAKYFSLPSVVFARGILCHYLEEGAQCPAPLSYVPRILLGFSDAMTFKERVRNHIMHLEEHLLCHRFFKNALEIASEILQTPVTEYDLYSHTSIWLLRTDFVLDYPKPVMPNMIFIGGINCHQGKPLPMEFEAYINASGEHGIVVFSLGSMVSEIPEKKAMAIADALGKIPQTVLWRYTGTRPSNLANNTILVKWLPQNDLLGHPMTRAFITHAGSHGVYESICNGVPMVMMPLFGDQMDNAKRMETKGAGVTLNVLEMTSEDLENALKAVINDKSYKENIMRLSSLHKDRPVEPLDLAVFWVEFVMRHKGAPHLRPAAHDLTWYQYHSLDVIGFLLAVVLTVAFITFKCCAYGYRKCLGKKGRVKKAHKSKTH

Molecule | tested on | test | test system | conditions | scale | endpoint | result
CC(C)[C@H](NC(=O)[C@@H]1CCCN1C(=O)[C@H](CCCNC(=N)N)NC(=O)[C@H](CS)NC(=O)[C@H](Cc1c[nH]c2ccccc12)NC(=O)[C@H](CCCNC(=N)N)NC(=O)[C@@H](Cc1ccccc1)NC(=O)[C@H](Cc1c[nH]cn1)NC(=O)[C@H](CCC(=O)O)NC(=O)[C@H](CS)NC(=O)[C@H](CS)NC(=O)[C@H](CCCCN)NC(=O)[C@@H]1CC(=O)N[C@@H](CCCNC(=N)N)C(=O)N[C@@H](C)C(=O)N[C@@H](CC(=O)O)C(=O)N[C@H](Cc2ccc(O)cc2)C(=O)N1)C(N)=O [technetium-99m labelled] | – | – | C57 mice, stomach | intravenous, 0.037 MBq, 24 h | – | tissue uptake | 0.51 ± 0.22 %ID/g
human His-tagged SHP2 | SHP2 (human) | basal phosphatase activity | – | 30 min, pH 7.2, 30 °C, added: p-nitrophenyl phosphate 20 mM | – | Vmax | 6.8 pmol/min/pmol
UGT1A9 (Homo sapiens, UniProt O60656) | Oc1ccc(C2CCCC2)cc1 | steady-state kinetics | – | pH 7.4, 37 °C | – | Km | 18.2 µM
B1 (enzyme) | CCN1CCN(C(=O)N[C@@H](C(=O)N[C@@H]2C(=O)N3[C@@H]2SC(C)(C)[C@@H]3C(=O)O)c2ccccc2)C(=O)C1=O | steady-state kinetics | – | pH 7 | – | kcat/Km | 3.9e+06 ± 600000 M⁻¹ s⁻¹
human Hsc70 | E3 ubiquitin-protein ligase CHIP (STUB1, Homo sapiens, UniProt Q9UNE7) | binder, biolayer interferometry | – | pH 7.4, 25 °C | – | koff | 0.006 ± 0.001 s⁻¹
GSS(Octanoyl)FLSPEHQRVQQRKESKKPPAKLQPR (ghrelin; Octanoyl = CCCCCCCC(=O)*; sequence looked up) | Calu-3 monolayer, air-liquid interface | – | peptide | 1 mg/mL apical, 3 h, pH 7.4, 37 °C, with or without HTCC | – | compound share in apical compartment | 100 ± 1.3%
epidermal growth factor | MDCK | transwell transcytosis | – | 3 h, 37 °C, basal to apical | baseline: bound tracer | tracer transported | ~30%
HscB | HscA wild type Escherichia coli | ATPase activity, activator | – | 50-fold molar excess, pH 7.3, 25 °C, added: ATP 1 mM | – | Vmax | 0.288 min⁻¹
KCNTATCATQRLANFLVHSSNNFGAILSSTNVGSNTY (amylin (human); not fully specified (C-terminus, bridges); cysteine pairing not given here; sequence looked up) | RIN5fm | cell viability, MTT | peptide | 20 h | – | lowest toxic concentration | 1 nM

Repeated from above:
Molecule | tested on | test | test system | conditions | scale | endpoint | result
B1 (enzyme) | CCN1CCN(C(=O)N[C@@H](C(=O)N[C@@H]2C(=O)N3[C@@H]2SC(C)(C)[C@@H]3C(=O)O)c2ccccc2)C(=O)C1=O | steady-state kinetics | – | pH 7 | – | kcat/Km | 3.9e+06 ± 600000 M⁻¹ s⁻¹
